Results of several laboratories.
Compare with care: the assays were run in different laboratories. Values joined by “and” are separate records of one study, mostly repeats; a detail may differ. Numbers after ± are the reported error.
Sequence of UniProt P20813 (whole entry, looked up): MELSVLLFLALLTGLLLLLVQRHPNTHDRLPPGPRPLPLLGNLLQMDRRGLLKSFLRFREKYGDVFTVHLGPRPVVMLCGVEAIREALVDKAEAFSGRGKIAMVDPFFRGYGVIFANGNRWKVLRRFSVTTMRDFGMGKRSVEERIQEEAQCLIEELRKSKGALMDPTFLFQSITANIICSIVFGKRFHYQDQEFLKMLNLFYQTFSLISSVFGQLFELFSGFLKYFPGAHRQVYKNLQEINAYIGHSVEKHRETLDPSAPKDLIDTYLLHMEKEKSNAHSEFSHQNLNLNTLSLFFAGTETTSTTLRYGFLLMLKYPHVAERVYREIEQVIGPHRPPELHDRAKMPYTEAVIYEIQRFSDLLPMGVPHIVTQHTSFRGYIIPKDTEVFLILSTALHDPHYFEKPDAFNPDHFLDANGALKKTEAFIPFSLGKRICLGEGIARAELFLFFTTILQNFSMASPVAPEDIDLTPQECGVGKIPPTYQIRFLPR
Sequence of UniProt O75469 (whole entry, looked up): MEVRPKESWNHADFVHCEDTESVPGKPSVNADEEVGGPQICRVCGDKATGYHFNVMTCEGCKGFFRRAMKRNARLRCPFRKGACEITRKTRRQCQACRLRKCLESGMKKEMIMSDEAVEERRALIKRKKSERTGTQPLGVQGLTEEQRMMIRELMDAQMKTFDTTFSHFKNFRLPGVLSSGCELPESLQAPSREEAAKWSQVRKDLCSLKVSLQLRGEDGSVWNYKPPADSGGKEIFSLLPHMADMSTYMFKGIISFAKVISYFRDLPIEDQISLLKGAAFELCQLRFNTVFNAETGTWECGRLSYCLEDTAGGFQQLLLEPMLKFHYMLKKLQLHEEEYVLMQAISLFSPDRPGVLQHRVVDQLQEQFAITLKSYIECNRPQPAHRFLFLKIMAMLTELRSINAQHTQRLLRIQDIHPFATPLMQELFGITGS
Sequence of UniProt P10632 (whole entry, looked up): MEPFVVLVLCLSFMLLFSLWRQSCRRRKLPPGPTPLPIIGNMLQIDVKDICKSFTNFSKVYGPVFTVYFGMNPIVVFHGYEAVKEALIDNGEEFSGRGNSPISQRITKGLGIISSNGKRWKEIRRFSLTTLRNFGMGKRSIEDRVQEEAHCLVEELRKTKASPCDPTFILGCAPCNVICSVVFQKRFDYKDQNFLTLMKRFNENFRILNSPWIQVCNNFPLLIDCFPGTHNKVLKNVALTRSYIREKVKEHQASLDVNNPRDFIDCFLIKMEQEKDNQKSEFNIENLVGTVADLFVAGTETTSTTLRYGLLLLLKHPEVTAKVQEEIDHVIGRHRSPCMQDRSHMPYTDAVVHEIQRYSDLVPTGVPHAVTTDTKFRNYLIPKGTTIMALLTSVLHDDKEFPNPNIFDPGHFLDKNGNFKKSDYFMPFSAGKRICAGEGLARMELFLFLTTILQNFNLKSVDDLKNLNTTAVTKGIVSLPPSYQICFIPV

Structure (SMILES)	tested on	test	test system	setting	scale	endpoint	value
COc1cccc(OC)c1-c1cc(C(=O)NC2(C(=O)O)C3CC4CC(C3)CC2C4)nn1-c1ccc(C(=O)N(C)CCOCCN(C)C(=O)[C@H](CCCCNC(=O)[C@H](CC(C)C)NC(=O)C2OC2C(=O)O)NC(=O)CN2CCN(CC(=O)[O-])CCN(CC(=O)[O-])CCN(CC(=O)[O-])CC2)cc1C(C)C.[177Lu+3] (mixture of isomers)	HT-29 tumour model	–	host not given, pancreas	4 h, tumour-bearing	–	tracer uptake	0.54 %ID/g
CC(C)Cc1ccc(C(C)C(=O)N[C@@H](CCCCNC(=O)CCOCCOCCOCCOCCOCCOCCNC(=O)CN2CCN(CC(=O)[O-])CCN(CC(=O)[O-])CCN(CC(=O)[O-])CC2)C(=O)Nc2cccc3c(C(=O)NCC(=O)N4CC(F)(F)C[C@H]4C#N)ccnc23)cc1.[177Lu+3] (some centres unmarked)	U-87 MG tumour model	–	host not given, muscle	24 h, tumour-bearing	–	tracer uptake	0.89 %ID/g
N#Cc1ccnc(N2C(=O)CC[C@H]2C(=O)N(c2cncc(F)c2)[C@H](C(=O)NC2CC(F)(F)C2)c2ccccc2Cl)c1	Nuclear receptor subfamily 1 group I member 2 (NR1I2, Homo sapiens, UniProt O75469)	reporter gene, agonist	–	1 µM	relative to: rifampicin	activation	2%
CC[C@H](C)[C@H](NC(=O)C[C@H](NC(=O)CN1CCN2CCN(CC1)CC(=O)[O][Al]([18F])[O]C(=O)C2)C(=O)O)C(=O)N[C@H]1CCc2cccc3c2N(C1=O)[C@H](C(=O)NCc1cn[nH]n1)C3	MC-38 tumour model	–	host not given, spleen	30 min, tumour-bearing	–	tracer uptake	0.4 %ID/g
COc1cccc(OC)c1-c1cc(C(=O)NC2(C(=O)O)C3CC4CC(C3)CC2C4)nn1-c1ccc(C(=O)N(C)CCCN(C)C(=O)[C@H](CCCCNC(=O)[C@H](CC(C)C)NC(=O)C2OC2C(=O)O)NC(=O)CN2CCN(CC(=O)[O-])CCN(CC(=O)[O-])CCN(CC(=O)[O-])CC2)cc1C(C)C.[177Lu+3] (mixture of isomers)	HT-29 tumour model	–	host not given, blood	24 h, tumour-bearing	–	tracer uptake	0.13 %ID/g
N#C[C@@H]1CC(F)(F)CN1C(=O)CNC(=O)c1ccnc2c(NC(=O)CCOCCOCCOCCOCCOCCOCCNC(=O)[C@H](CCCCNC(=O)CN3CCN(CC(=O)[O-])CCN(CC(=O)[O-])CCN(CC(=O)[O-])CC3)NC(=O)CCCc3ccc(I)cc3)cccc12.[177Lu+3]	U-87 MG tumour model	–	host not given, pancreas	48 h, tumour-bearing	–	tracer uptake	0.39 %ID/g
COCC1CN(C2CCN(c3cc(OC)c(Nc4ncc(Br)c(Nc5ccc6c(c5P(C)(C)=O)OCCO6)n4)cc3C)CC2)C1	–	first-in-human trial	human	oral, 30 mg once daily	any treatment-related	adverse events	100%
NC(=O)c1ccc(C(=O)NOCc2ccc(Sc3cccc(Cl)c3)c(C(F)(F)F)c2)cc1	Cytochrome P450 2C8 (CYP2C8, Homo sapiens, UniProt P10632)	–	pooled human liver microsomes	5 min	–	IC50	> 30 µM
CCN(CC)CC#CCNc1ccnc2cc(Cl)ccc12	Salmonella typhimurium	mini-Ames test	TA97a	500.0 µg/well, without S9	–	revertants	0 revertants/well
CNC(=O)C1CCCN(C(=O)C2CC3CCC2N3C(=O)[C@@H]2C[C@@H](O)CN2C(=O)NCc2cccc(Cl)c2F)C1 (mixture of isomers)	Cytochrome P450 2B6 (CYP2B6, Homo sapiens, UniProt P20813)	preincubation without NADPH	human	0.617 µM	relative to: negative control	remaining activity	101% and 102%
CC(C)OCCOCc1ccc(OCC(O)CN(N=O)C(C)C)cc1 (centres unmarked)	Salmonella typhimurium	Ames test	TA100	500 µg/plate, without metabolic activation	relative to: solvent control	revertant fold increase	1 fold
N#C[C@@H]1CC(F)(F)CN1C(=O)CNC(=O)c1ccnc2c(NC(=O)[C@@H](N)CCCCNC(=O)CCOCCOCCOCCOCCOCCOCCNC(=O)CN3CCN(CC(=O)[O-])CCN(CC(=O)[O-])CCN(CC(=O)[O-])CC3)cccc12.[177Lu+3]	U-87 MG tumour model	–	host not given, tumour	48 h, tumour-bearing	–	tracer uptake	0.36 %ID/g
CC[C@H](C)[C@H](NC(=O)[C@H](Cc1ccccc1)NC(=O)[C@H](CCC(=O)O)NC(=O)[C@H](CCCCN)NC(=O)[C@H](C)NC(=O)[C@H](C)NC(=O)[C@H](CCC(N)=O)NC(=O)CNC(=O)[C@H](CCC(=O)O)NC(=O)[C@H](CC(C)C)NC(=O)[C@H](Cc1ccc(O)cc1)NC(=O)[C@H](CO)NC(=O)[C@H](CO)NC(=O)[C@@H](NC(=O)[C@H](CC(=O)O)NC(=O)[C@H](CO)NC(=O)[C@@H](NC(=O)[C@H](Cc1ccccc1)NC(=O)[C@@H](NC(=O)CNC(=O)[C@H](CCC(=O)O)NC(=O)[C@H](C)NC(=O)[C@@H](N)Cc1c[nH]cn1)[C@@H](C)O)[C@@H](C)O)C(C)C)C(=O)N[C@@H](C)C(=O)N[C@@H](Cc1c[nH]c2ccccc12)C(=O)N[C@@H](CC(C)C)C(=O)N[C@H](C(=O)N[C@@H](CCCCN)C(=O)NCC(=O)N[C@@H](CCCN=C(N)N)C(=O)NCC(=O)O)C(C)C	DPP-4 (recombinant)	substrate, LC-MS	–	500 µM, 1 h	–	remaining peptide	~79%
C=C(NC(=O)c1csc(-c2nc3c(cc2O)-c2nc(cs2)C(=O)NC(C(C)O)C(=O)NC(=C(C)OC)c2nc(cs2)C(=O)NC2c4nc(cs4)C(=O)NC(COC(=O)c4c5c6c(cccc6n4O)COC(=O)C(OC4CC(C)(O)C(N(C)C)C(C)O4)C2OC5)c2nc-3cs2)n1)C(N)=O (centres unmarked)	–	–	Sprague-Dawley rat, female, plasma	intravenous infusion, 6 mg/kg, multiple doses, day 1	–	Cmax	4910 ng/mL
N#C[C@@H]1CC(F)(F)CN1C(=O)CNC(=O)c1ccnc2c(NC(=O)[C@H](CCCCNC(=O)CCOCCOCCOCCOCCOCCOCCNC(=O)CN3CCN(CC(=O)[O-])CCN(CC(=O)[O-])CCN(CC(=O)[O-])CC3)NC(=O)CCCc3ccc(I)cc3)cccc12.[177Lu+3]	U-87 MG tumour model	–	host not given, blood	4 h, tumour-bearing	–	tracer uptake	6.43 %ID/g
O=C1NC2(CC2)COc2ncc(F)cc2[C@H]2COCCN2c2ccn3ncc1c3n2	Salmonella typhimurium	Ames test	TA98	5000 µg/plate, 48 h, together with: without S9	–	revertant colonies	13 ± 3 revertants/plate
O=C1C2CC3CC1CC(C(=O)N1CCN(c4ccc([N+](=O)[O-])c5ncccc45)CC1)(C3)C2	Salmonella typhimurium	Ames test	TA1535	0.31 µg/well, with S9	–	mean revertant colonies	3 colonies/well

A few entries again:
Structure (SMILES)	tested on	test	test system	setting	scale	endpoint	value
COc1cccc(OC)c1-c1cc(C(=O)NC2(C(=O)O)C3CC4CC(C3)CC2C4)nn1-c1ccc(C(=O)N(C)CCCN(C)C(=O)[C@H](CCCCNC(=O)[C@H](CC(C)C)NC(=O)C2OC2C(=O)O)NC(=O)CN2CCN(CC(=O)[O-])CCN(CC(=O)[O-])CCN(CC(=O)[O-])CC2)cc1C(C)C.[177Lu+3] (mixture of isomers)	HT-29 tumour model	–	host not given, blood	24 h, tumour-bearing	–	tracer uptake	0.13 %ID/g
CC[C@H](C)[C@H](NC(=O)[C@H](Cc1ccccc1)NC(=O)[C@H](CCC(=O)O)NC(=O)[C@H](CCCCN)NC(=O)[C@H](C)NC(=O)[C@H](C)NC(=O)[C@H](CCC(N)=O)NC(=O)CNC(=O)[C@H](CCC(=O)O)NC(=O)[C@H](CC(C)C)NC(=O)[C@H](Cc1ccc(O)cc1)NC(=O)[C@H](CO)NC(=O)[C@H](CO)NC(=O)[C@@H](NC(=O)[C@H](CC(=O)O)NC(=O)[C@H](CO)NC(=O)[C@@H](NC(=O)[C@H](Cc1ccccc1)NC(=O)[C@@H](NC(=O)CNC(=O)[C@H](CCC(=O)O)NC(=O)[C@H](C)NC(=O)[C@@H](N)Cc1c[nH]cn1)[C@@H](C)O)[C@@H](C)O)C(C)C)C(=O)N[C@@H](C)C(=O)N[C@@H](Cc1c[nH]c2ccccc12)C(=O)N[C@@H](CC(C)C)C(=O)N[C@H](C(=O)N[C@@H](CCCCN)C(=O)NCC(=O)N[C@@H](CCCN=C(N)N)C(=O)NCC(=O)O)C(C)C	DPP-4 (recombinant)	substrate, LC-MS	–	500 µM, 1 h	–	remaining peptide	~79%
